Experimental data pooled from the literature.
Every numbered part comes from another study and shows a few of its results, in no order. Changes are numbered by the printed parent chain.

Series 1 — target: CCNB1, cyclin fold, Cln2 fusion (human); method: yeast growth competition, sequencing; matrix: yeast; setting: weak parent motif; baseline: not given; direction: higher = stronger binding; measurement: normalised enrichment score
Starting sequence: RBL1 docking peptide (human); GSAKRRLFGEDPP
LSAKRRLFGEDPP [G1L]: 0.756
GSAKRRLFPEDPP [G9P]: 1.24
GSAKRRLFGDDPP [E10D]: 0.848
GSAKRRLFLEDPP [G9L]: 1.64
GSAKRRLFGWDPP [E10W]: 0.471
GSAKRRLFGEDHP [P12H]: 0.413
GSAKRRLFGNDPP [E10N]: 0.479
RSAKRRLFGEDPP [G1R]: 0.841
GSASRRLFGEDPP [K4S]: 0.554
GSAKCRLFGEDPP [R5C]: 0.41
GSAKRRLFDEDPP [G9D]: 0.725
GSAKRRLFGEEPP [D11E]: 1.03
GSAKRRLFGEWPP [D11W]: 0.606
GSSKRRLFGEDPP [A3S]: -0.311
GSAKRRLFQEDPP [G9Q]: 0.463
GSAKNRLFGEDPP [R5N]: 0.343

Series 2 — method: universal PBM; molecule type: double-stranded DNA, one strand shown; matrix: in vitro; concentration: not given; direction: higher = stronger binding; measurement: E-score
Target: Sal-like protein 4, full length isoform B (SALL4, Homo sapiens, UniProt Q9UJQ4-2, residues 1-616)
Setting: 8-mer, flanks averaged, mean of replicates
GAAGGACA: 0.0706
AACCCGTT: -0.144
ATAGACTC: 0.0413
CAACGGGC: -0.114
AACCCGCT: -0.222
AGTCCGAC: -0.16
AATTTCCG: 0.063
AATCGGCG: -0.227
AAGCGAAT: 0.0126
CGAAATGC: -0.0163
GTAGTGTA: 0.0598
ACACCGAA: -0.0722
GCAGGGGA: -0.274
CCCGATCG: -0.21
CGCAGAAG: -0.174
CCCCGATA: -0.0381
AACCTGGA: -0.0987
CGACGGCA: -0.363
ACAAGAAC: 0.162
AAAGGCCG: -0.139
ACCTCCTA: 0.014
AGTAGAAC: 0.196
ATGCACTC: -0.0126

Series 3 — method: protein-binding microarray; molecule type: double-stranded DNA, one strand shown; matrix: in vitro; concentration: not given; direction: higher = stronger binding; measurement: E-score
Target: Max-binding protein MNT, bHLH-zipper, MAX partner unstated (MNT, Homo sapiens, UniProt Q99583, residues 220-300)
Setting: k-mer, scored over probes, only values ≥0.25
Target sequence (chain): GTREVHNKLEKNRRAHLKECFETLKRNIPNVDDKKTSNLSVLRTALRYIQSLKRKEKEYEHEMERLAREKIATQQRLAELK
AGGCGCAT: 0.254
ACGTGGTA: 0.459
GTCGTGCA: 0.26
ACACATGA: 0.359
CACATGTA: 0.467
CCCCAACC: 0.354
GCACGCAC: 0.329
CGTGCAGA: 0.349
ACGTGCAT: 0.454
ACGTGCGA: 0.413
CCAGCACG: 0.343
GCGGCCAC: 0.269
CAGGAACG: 0.26
CGTGATAG: 0.3
CGTGTTCC: 0.388
ACACACGC: 0.383
ACGCGCAA: 0.293
AGGCCACG: 0.318
GCCTCCCC: 0.278
CCCGTGGC: 0.269
ACCCGCAT: 0.279

Series 4 — method: protein binding microarray; molecule type: double-stranded DNA, one strand shown; matrix: in vitro; concentration: not given; baseline: not given; direction: higher = stronger binding; measurement: E-score
Target: Histone acetyltransferase KAT6A, winged helix 2, GST fusion (KAT6A, Homo sapiens, UniProt Q92794, residues 85-181)
Setting: 8-mer, flanks averaged, mean of 2 arrays, mostly near background
Construct (chain): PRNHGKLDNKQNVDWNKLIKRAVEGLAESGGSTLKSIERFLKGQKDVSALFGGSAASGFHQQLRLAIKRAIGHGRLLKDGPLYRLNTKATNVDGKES
TACATCTA: -0.077
CATGATGA: -0.108
GCAGTGCA: 0.108
CCTGCAAG: -0.0415
AAATGATG: -0.0185
CTACGGCC: 0.0655
CCCAAAGA: 0.102
AGTCGGAT: -0.038
AGAGCGGC: 0.097
ATCCGGTC: 0.0138
GGGCTACA: 0.0232
GCACCCAA: 0.195
ATTCGATG: -0.0812
ATTTAAAA: 0.0818
CCCGCTGC: 0.0781
AACTGTAA: -0.00983

Series 5 — method: RNA Bind-n-Seq; molecule type: RNA; matrix: in vitro; concentration: 100 nM; baseline: input RNA pool; direction: higher = stronger binding; measurement: bound/input enrichment
Target: RING finger protein unkempt homolog, zinc fingers 1-6, SBP tag (UNK, Homo sapiens, UniProt Q9C0B0, residues 30-357)
Chain of UniProt Q9C0B0 (30-357, looked up): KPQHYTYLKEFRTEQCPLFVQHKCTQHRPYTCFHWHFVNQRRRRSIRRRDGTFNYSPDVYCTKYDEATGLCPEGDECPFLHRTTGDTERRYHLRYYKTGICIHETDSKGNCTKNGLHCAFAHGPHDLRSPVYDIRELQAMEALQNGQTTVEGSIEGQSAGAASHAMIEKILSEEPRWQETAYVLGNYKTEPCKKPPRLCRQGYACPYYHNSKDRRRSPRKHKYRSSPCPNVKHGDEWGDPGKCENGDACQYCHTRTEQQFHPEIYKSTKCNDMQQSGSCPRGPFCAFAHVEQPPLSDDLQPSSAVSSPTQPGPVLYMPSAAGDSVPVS
Setting: RNA with constant flanks, vertebrate orthologous sites, ends assumed
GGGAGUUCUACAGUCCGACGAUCAUGUCCUUGGUUACUGUGAUAUUUAAAAUAUCCACAGUGCUCACUUUUUCCAAAUGAUUCUAGUAAUUGCCUAGGAAUAUCUUCCUCUUACCUAUUAUUUAUCAAUUUUCCCAGUAUUUUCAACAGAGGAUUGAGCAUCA: 0.945 ratio
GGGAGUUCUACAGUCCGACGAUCCACAUCUGGUGAUAUUUGGCCUGGCCUUUCAGCUUACGAUAAUAGUCCCAGAUCACCGCAUAGUCCUUCCCCUAUUGCUACACCACCUAGUCAGAGUUCAUCUUGCUCAGAUGCCCCCAUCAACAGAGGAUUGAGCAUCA: 0.928 ratio
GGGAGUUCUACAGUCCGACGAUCAGGGAAAAGAACUCACAAACUCAAAGGAAAACUAUUAAAGAGUUCCUAACAGUUAAAAGCUAGGAAAGAUUAGGACAAGAUUACAAAUGAGAAAUUAAAAACAGAAGAAAAAGGACAGGGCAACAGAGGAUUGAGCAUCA: 0.758 ratio
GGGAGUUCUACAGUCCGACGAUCGUCAUCUGAUUGGAUGAAGACCAUCCCAAGUUACAACCAAACAAACAGCUCCAUGGACUUUAGAAAUUACAUGAUGAGGGAUGAGAAUCUGGAACCACUGCCCCCAAACUGGGAAAUGGCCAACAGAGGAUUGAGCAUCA: 0.931 ratio
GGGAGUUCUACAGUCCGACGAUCCAGCCAACUCCCUUAUCGGCCGGGCUGCUCACAUCGCUGUCCUCGACUCUGAGAUCUUCCUGGAGAAGUUCUUCCUUGUUGCGGGCCUCAAGUUCUUUCAGUAGAACAGCGACAGAUUCACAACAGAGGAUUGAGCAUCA: 0.493 ratio
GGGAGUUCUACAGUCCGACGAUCAUGCAUUUUGCUACUUGGAUGCGGUCUGCACAGAAAACUUCUGGCCUCUUCACAAGACCAAGUUAAUAUGUUUUUUUUUUAAGAUGUUAGGACCUAACUGAAUUUACUAAAAUGUAACUACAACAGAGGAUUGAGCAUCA: 0.295 ratio
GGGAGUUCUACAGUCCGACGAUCGCUCUUAAUGCACUGUUUUACCAGGCAUUGUCUGAAGUUUGUGUAAUCUAGAAGAUUUUAUAGUUUUAUUUUAAUGAAGUAUGAAUUGAAGCAAAGCUGUUAGGAGUAUGUAGUCUUUUACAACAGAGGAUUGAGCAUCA: 1.25 ratio
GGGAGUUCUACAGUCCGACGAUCAAAAUUCAAUAGAAUUACACUAAUACUGACGUUCCAGUUGAAAAGAUAUCCAAGUGUGUGUUGGUAGUUACUAAAAGAAUUAUAGCUUGUAUUGCCUUGUAUUUAUAUCCCCAUGUUCAGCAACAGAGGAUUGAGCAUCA: 1.08 ratio
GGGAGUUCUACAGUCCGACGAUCUUCAGGCACAACUGACUGGUUCACAGCAUUCCUUACAUAGCUAUCUAUCAAAUGCAAGUGUAGUUAAUUUUCAGGAAACAAGCAGGCAGUCAUCUUUAUCCUGUAGCCCAAUCGGAGAUUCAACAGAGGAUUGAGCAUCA: 1.47 ratio
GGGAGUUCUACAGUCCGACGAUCAUUAGAGCUGAAAGAAUAGCAUAGGAGAUUGUGGUCAAAAGUAGGAGCAGUCGAGGAGAGAAAUUACAAAUAUCAAGAACCAGGUGGUUAAAAGUUGGAGGUGUAGGUCAUUGAAAGUCACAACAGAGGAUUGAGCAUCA: 0.717 ratio
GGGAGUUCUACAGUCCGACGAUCGAAGAUGGUGGUUGUACAUUAUUCAUUUAGAAAAUAUAAAAAUUCAUUUUGUUUUGAAGCUAGUUAUUAAACUGGAAUAGCAGUUAUAUCCCUGAGAAUGGGGCCCUUCUCUUGACAUUCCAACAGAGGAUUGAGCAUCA: 4.16 ratio
